Measurements pooled from the literature.
Parts stem from different laboratories: compare values within a part only.
Sequence of UniProt Q9UL54 (whole entry, looked up): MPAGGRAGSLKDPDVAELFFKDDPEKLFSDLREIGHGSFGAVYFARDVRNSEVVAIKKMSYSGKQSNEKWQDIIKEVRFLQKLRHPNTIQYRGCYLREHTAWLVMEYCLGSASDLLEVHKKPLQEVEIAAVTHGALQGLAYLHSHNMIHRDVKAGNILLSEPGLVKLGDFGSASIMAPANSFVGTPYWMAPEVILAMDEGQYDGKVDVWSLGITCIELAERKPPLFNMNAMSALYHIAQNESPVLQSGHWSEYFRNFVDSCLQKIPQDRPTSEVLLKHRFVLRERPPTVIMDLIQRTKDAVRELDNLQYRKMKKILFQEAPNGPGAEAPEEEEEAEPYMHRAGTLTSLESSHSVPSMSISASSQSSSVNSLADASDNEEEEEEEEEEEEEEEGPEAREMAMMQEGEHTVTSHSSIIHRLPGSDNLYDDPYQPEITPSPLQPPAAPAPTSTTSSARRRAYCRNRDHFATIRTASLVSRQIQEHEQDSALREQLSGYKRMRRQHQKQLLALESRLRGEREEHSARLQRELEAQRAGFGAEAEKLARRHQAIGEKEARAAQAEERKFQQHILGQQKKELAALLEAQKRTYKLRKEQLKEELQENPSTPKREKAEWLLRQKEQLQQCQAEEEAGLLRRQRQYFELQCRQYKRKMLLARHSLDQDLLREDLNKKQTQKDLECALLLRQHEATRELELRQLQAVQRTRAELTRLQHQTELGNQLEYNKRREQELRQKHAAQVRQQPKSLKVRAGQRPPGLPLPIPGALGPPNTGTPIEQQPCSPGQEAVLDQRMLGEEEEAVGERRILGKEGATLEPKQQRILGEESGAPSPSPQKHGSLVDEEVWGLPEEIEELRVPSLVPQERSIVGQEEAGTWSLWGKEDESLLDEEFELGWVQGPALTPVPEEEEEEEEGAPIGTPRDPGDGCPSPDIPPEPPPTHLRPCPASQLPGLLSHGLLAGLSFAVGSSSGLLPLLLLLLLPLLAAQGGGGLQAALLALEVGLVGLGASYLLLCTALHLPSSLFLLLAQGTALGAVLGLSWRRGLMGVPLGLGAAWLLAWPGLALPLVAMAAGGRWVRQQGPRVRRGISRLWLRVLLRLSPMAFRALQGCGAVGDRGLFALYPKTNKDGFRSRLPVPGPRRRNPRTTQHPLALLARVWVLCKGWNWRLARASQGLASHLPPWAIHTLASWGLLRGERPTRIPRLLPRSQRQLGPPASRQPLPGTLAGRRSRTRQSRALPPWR
Sequence of UniProt Q9HAZ1 (whole entry, looked up): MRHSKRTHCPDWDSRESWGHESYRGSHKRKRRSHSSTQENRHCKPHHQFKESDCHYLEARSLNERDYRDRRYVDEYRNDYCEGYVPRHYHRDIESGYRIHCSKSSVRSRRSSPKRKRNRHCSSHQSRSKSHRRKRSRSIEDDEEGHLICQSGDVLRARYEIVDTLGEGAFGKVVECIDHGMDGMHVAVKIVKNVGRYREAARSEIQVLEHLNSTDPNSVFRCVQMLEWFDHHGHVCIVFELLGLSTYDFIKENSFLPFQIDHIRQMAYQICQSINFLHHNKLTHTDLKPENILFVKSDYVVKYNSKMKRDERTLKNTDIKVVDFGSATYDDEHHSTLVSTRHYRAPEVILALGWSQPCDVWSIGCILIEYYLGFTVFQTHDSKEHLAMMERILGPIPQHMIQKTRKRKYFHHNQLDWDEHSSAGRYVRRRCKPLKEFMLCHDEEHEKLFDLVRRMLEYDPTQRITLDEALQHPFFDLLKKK
Sequence of UniProt P78362 (whole entry, looked up): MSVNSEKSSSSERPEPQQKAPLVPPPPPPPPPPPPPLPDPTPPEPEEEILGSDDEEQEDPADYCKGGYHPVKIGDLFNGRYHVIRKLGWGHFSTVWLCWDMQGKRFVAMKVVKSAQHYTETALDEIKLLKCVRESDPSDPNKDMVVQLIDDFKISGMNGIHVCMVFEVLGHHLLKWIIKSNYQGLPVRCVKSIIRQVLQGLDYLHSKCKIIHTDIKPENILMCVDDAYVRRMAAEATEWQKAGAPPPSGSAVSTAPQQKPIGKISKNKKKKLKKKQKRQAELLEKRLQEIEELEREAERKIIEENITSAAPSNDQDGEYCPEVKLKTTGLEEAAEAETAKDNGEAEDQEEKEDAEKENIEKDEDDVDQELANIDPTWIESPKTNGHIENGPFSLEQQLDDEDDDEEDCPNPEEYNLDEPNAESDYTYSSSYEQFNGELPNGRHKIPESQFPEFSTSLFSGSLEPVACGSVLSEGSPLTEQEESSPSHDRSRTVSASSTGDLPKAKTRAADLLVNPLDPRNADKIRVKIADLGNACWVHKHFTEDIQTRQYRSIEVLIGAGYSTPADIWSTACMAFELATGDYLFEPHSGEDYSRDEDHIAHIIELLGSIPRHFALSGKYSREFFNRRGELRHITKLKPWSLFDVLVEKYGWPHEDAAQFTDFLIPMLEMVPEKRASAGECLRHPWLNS
Sequence of UniProt P51812 (whole entry, looked up): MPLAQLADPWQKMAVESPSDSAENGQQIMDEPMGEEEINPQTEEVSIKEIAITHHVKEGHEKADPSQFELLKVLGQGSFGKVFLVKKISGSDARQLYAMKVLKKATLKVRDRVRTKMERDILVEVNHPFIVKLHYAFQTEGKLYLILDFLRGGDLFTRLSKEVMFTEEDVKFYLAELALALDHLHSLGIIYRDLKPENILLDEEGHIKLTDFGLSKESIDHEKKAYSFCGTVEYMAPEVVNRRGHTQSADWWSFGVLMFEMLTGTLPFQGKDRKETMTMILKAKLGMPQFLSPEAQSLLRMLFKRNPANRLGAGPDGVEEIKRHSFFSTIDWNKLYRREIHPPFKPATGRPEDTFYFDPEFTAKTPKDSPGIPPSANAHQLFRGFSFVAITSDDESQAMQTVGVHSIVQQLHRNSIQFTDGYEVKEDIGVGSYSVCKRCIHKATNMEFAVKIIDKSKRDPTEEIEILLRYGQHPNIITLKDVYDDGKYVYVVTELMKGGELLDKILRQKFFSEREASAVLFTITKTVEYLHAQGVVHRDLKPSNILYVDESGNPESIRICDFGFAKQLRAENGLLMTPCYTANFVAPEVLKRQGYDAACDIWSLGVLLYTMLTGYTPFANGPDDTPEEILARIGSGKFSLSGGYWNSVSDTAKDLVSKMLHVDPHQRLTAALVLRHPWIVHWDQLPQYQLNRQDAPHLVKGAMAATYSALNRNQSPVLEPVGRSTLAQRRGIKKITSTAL
Sequence of UniProt P53779 (whole entry, looked up): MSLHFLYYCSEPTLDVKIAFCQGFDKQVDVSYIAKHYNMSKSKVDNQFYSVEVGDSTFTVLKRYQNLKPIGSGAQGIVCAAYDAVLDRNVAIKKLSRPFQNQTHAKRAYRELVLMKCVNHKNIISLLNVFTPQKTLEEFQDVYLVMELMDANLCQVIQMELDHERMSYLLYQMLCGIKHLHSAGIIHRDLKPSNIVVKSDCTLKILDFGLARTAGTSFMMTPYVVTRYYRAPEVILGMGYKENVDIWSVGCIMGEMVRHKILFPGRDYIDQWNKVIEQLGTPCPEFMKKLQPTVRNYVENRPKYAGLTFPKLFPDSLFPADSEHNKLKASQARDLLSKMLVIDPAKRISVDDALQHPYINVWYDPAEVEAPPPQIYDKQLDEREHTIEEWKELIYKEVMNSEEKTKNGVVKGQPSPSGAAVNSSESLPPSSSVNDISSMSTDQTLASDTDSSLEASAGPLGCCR

Block 1 — effect on: cell-free assay; method: competition with immobilised ligand; tested at: 0.1 µM
Structure (SMILES): CS(=O)(=O)N1CCCC(NC(=O)[C@H](CCC2CCCCC2)NC(=O)c2ccc(CNC(=O)c3cnc4ccccn34)cc2)C1 (some centres unmarked)
The remaining binding was 87% (MAP4K3 (Homo sapiens, UniProt Q8IVH8)).
The remaining binding was 100% (EGFR (Homo sapiens, UniProt P00533, del747-750/T751S)).
It gave 63% for remaining binding (MYLK4 (Homo sapiens, UniProt Q86YV6)).
For EGFR (Homo sapiens, UniProt P00533, L858R/T790M): remaining binding read 100%.
The remaining binding was 100% (ACVR2B (Homo sapiens, UniProt Q13705)).
It gave 82% for remaining binding (PRKG2 (Homo sapiens, UniProt Q13237)).
Cyclin-dependent kinase 4, with cyclin D1 (CDK4, Homo sapiens, UniProt P11802) — remaining binding: 100%.
It gave 91% for remaining binding (TAOK2 (Homo sapiens, UniProt Q9UL54)).
It gave 97% for remaining binding (Ribosomal protein S6 kinase alpha-4, N-terminal kinase domain (RPS6KA4, Homo sapiens, UniProt O75676)).
It gave 72% for remaining binding (TLK1 (Homo sapiens, UniProt Q9UKI8)).
For SIK3 (Homo sapiens, UniProt Q9Y2K2): remaining binding read 100%.
KDR (Homo sapiens, UniProt P35968) — remaining binding: 96%.
It gave 100% for remaining binding (DYRK1A (Homo sapiens, UniProt Q13627)).
The remaining binding was 94% (CDK11B (Homo sapiens, UniProt P21127)).
It gave 97% for remaining binding (EPHA3 (Homo sapiens, UniProt P29320)).
Ribosomal protein S6 kinase alpha-3, N-terminal kinase domain (RPS6KA3, Homo sapiens, UniProt P51812) — remaining binding: 100%.
For MAPK10 (Homo sapiens, UniProt P53779): remaining binding read 85%.
CLK4 (Homo sapiens, UniProt Q9HAZ1) — remaining binding: 98%.
The remaining binding was 98% (RET (Homo sapiens, UniProt P07949, V804L)).
For RAF1 (Homo sapiens, UniProt P04049): remaining binding read 61%.
For PAK4 (Homo sapiens, UniProt O96013): remaining binding read 100%.
It gave 100% for remaining binding (Mast/stem cell growth factor receptor Kit, autoinhibited (KIT, Homo sapiens, UniProt P10721)).

Block 2 — effect on: enzyme activity; mode: inhibitor; tested at: 0.5 µM; relative to: control
SMILES: O=C(c1cc2cc(O)ccc2[nH]1)c1cc2cc(O)ccc2[nH]1
The remaining activity was 97.1% (SRPK2 (Homo sapiens, UniProt P78362)).
It gave 91.9% for remaining activity (PTK6 (Homo sapiens, UniProt Q13882)).
For STK4 (Homo sapiens, UniProt Q13043): remaining activity read 33.7%.
The remaining activity was 98.9% (PIM3 (Homo sapiens, UniProt Q86V86)).
For STK3 (Homo sapiens, UniProt Q13188): remaining activity read 41.4%.
For ZAP70 (Homo sapiens, UniProt P43403): remaining activity read 101%.
For PDGFRA (Homo sapiens, UniProt P16234): remaining activity read 65.3%.
SYK (Homo sapiens, UniProt P43405) — remaining activity: 72%.

Block 3 — effect on: enzyme activity; mode: inhibitor; tested at: 10 µM
Target: Calcium/calmodulin-dependent protein kinase type II subunit alpha (CAMK2A, Homo sapiens, UniProt Q9UQM7)
Sequence of UniProt Q9UQM7 (whole entry, looked up): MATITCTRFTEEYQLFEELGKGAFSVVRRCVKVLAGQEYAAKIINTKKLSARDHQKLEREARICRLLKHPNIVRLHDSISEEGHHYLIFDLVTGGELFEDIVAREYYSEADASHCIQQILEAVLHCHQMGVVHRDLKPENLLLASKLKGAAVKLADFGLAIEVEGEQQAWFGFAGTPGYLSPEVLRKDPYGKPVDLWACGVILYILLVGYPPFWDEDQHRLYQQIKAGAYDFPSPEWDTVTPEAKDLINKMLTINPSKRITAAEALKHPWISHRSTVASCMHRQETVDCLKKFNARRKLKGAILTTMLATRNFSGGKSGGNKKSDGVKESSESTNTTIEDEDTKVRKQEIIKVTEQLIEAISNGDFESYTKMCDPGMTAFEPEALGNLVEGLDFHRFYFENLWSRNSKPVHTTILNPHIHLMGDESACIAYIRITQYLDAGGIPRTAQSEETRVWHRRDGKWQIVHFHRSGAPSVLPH
The inhibition of `C[C@]12CCC(=O)C=C1C=C[C@@H]1[C@@H]2CC[C@@]2(C)[C@H]1CC[C@@]21CCC(=O)O1` is reported as -7%.
For `C/C=C(/C)C(=O)O[C@@H]1c2c(ccc3ccc(=O)oc23)OC(C)(C)[C@@H]1OC(C)=O`, the inhibition was 11%.
`CC[C@H](Nc1ncnc2nc[nH]c12)c1nc2cccc(F)c2c(=O)n1-c1ccccc1` has an inhibition of -9%.
For `CCCCCCCC/C=C\CCCCCCCC(=O)O[C@H]1CC[C@@]2(C)C(=CC[C@H]3[C@@H]4CC[C@H]([C@H](C)CCCC(C)C)[C@@]4(C)CC[C@@H]32)C1`, the inhibition was -8%.
With `C[C@]12CCC3=C4CCC(=O)C=C4CC[C@H]3[C@@H]1CC[C@@]2(O)CC#N` the inhibition was -5%.
The inhibition of `C/C(=C(\CCO)SS/C(CCO)=C(/C)N(C=O)Cc1cnc(C)nc1N)N(C=O)Cc1cnc(C)nc1N` is reported as -12%.
With `Sc1nc2ccccc2s1` the inhibition was -5%.
The inhibition of `CC[C@H](C)C(=O)O[C@H]1C[C@@H](C)C=C2C=C[C@H](C)[C@H](CC[C@@H]3C[C@@H](O)CC(=O)O3)[C@H]21` is reported as -7%.
For `Cc1ncc(C[n+]2csc(CCOP(=O)(O)OP(=O)(O)O)c2C)c(N)n1`, the inhibition was 27%.
For `CCOc1ccccc1O[C@H](c1ccccc1)[C@H]1CNCCO1` (racemic), the inhibition was -6%.
`COC(=O)[C@]1(O)C[C@@H](O)[C@@H](O)[C@H](OC(=O)/C=C/c2ccc(O)c(O)c2)C1` has an inhibition of 13%.
The inhibition of `CC1(C)O[C@H]2[C@H](O)CC(C(=O)O)=C[C@H]2O1` is reported as -9%.

Block 4 — mode: agonist
Target: Beta-1 adrenergic receptor (ADRB1, Homo sapiens, UniProt P08588)
Sequence of UniProt P08588 (whole entry, looked up): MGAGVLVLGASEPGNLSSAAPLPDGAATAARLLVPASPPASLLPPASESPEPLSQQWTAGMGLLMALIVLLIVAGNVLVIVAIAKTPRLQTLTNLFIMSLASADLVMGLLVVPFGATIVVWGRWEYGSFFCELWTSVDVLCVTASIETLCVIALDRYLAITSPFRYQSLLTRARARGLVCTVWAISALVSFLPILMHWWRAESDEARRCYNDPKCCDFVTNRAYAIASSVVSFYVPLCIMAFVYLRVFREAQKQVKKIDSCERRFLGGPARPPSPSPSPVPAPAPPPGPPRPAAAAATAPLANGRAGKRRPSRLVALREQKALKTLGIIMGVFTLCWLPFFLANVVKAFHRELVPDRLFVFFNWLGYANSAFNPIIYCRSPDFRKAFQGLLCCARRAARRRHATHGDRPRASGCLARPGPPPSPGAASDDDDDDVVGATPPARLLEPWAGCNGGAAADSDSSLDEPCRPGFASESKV
`O=C1CCN(Cc2ccccc2OCC(O)CN2CCCCC2)CCN1` (centres unmarked) gave an Emax of 95.8%.
For `CC(C(O)c1ccccc1)N(C)CCOC(c1ccccc1)c1ccccc1` (centres unmarked), the Emax was 44.4%.
`COC(=O)CN1CCN(c2ccccc2OC)CC1` has an Emax of 32%.
The Emax of `COc1ccccc1OCC(O)CNC(C)C` (centres unmarked) is reported as 81.1%.
For `COc1ccccc1N1CCN(CCCCN2C(=O)CCC2=O)CC1`, the Emax was 66.1%.
For `CN(Cc1cnn(C)c1)Cc1ccccc1OCC(O)CN1CCCCC1` (centres unmarked), the Emax was 96.7%.
For `Nc1ncnc2c1ncn2[C@@H]1O[C@@H]2COP(=O)(O)O[C@H]2[C@H]1O`, the Emax was 91.7%.
`CC(C)(Cc1ccc2ccccc2c1)NCC(O)COc1cccc(Cl)c1C#N` (centres unmarked) has an Emax of 113%.

Excerpt of the above (block 4):
`COC(=O)CN1CCN(c2ccccc2OC)CC1` has an Emax of 32%.
The Emax of `COc1ccccc1OCC(O)CNC(C)C` (centres unmarked) is reported as 81.1%.
For `COc1ccccc1N1CCN(CCCCN2C(=O)CCC2=O)CC1`, the Emax was 66.1%.
For `CN(Cc1cnn(C)c1)Cc1ccccc1OCC(O)CN1CCCCC1` (centres unmarked), the Emax was 96.7%.
For `Nc1ncnc2c1ncn2[C@@H]1O[C@@H]2COP(=O)(O)O[C@H]2[C@H]1O`, the Emax was 91.7%.
`CC(C)(Cc1ccc2ccccc2c1)NCC(O)COc1cccc(Cl)c1C#N` (centres unmarked) has an Emax of 113%.
